Measured values collected from several papers.
A part holds a random share of what one study measured. Substitutions count along the parent as printed.

Set 1
Target: Fragile X messenger ribonucleoprotein 1, C-terminal low-complexity region (Fmr1, Mus musculus, UniProt P35922)
Method: RNA Bind-n-Seq
Molecule type: RNA
Matrix: in vitro
Concentration: 200 nM
Setting: whole 134-nt RNA, ends assumed
With: 150 mM LiCl
Relative to: input library
Reading: higher = stronger binding
All molecules: 7-deaza-guanosine replaces G
Shared flanks, not repeated: GGGAGUUCUACAGUCCGACGAUC … UGGAAUUCUCGGGUGUCAAGG
| Oligonucleotide | log2 enrichment |
| --- | --- |
| AGUCCUGUGCUACACAUCGUAUGUACCGAAUCGGUUUUUGGUUUUUGGUUUUUUUGGAAAGUAUUAUGUUACGCCGUUCGGAUCUGCACU | -2.18 |
| CAAGUCCUGUGCUACACAUCGUAUGUACCGAAUCGGGUUUGGGUGGGUUUUUGGGAAAGUAUUAUGUUACGCCGUUCGGAUCUGCACUUC | -0.238 |
| CCCAUUCCAAGAUUUGCUGUUGGCAUUGUAAUAGGAAGAAAUGGAGAGAUGAUCAAAAAAAUACAAAAUGAUGCUGGUGUUCGCAUUCAG | -0.571 |
| UAACUUUAGAGGAGAAUCUGAUGGAUAUGGCAGUGGACGUGGAUUUGGGGAUGGCUAUAAUGGGUAUGGAGGAGGACCUGGAGGUGGCAA | 0.455 |
| UGGGAGGUGGAUUCUGUUUAUUUUUUUAGCUCAUUUCCAGGGGUGGGAAUUUUUUUUUAAUAUGUGUCAUGAAUAAAGUUGUUUUUGAAA | 0.934 |
| UCCUGUGCUACACAUCGUAUGUACCGAAUCGGGGAAAGGGGAAAGGGGUUUUUUUGGGGAAAGUAUUAUGUUACGCCGUUCGGAUCUGCA | 0.891 |
| UGGGAGGUGGAUUUUGUUUAUUUUUUUAGCUCAUUUCCAGGGGUGGGAAUUUUUUUUUAAUUUGUGUCAUGAAUAAAGUUGUUUUUGAAA | 0.0859 |

Set 2
Target: RNA binding protein fox-1 homolog 2, RRM domain, GST-SBP tag (RBFOX2, Homo sapiens, UniProt O43251-10, residues 100-194)
Method: RNA Bind-n-Seq
Molecule type: RNA
Matrix: in vitro
Concentration: 365 nM
Setting: natural RNA segment, single round, ends assumed
Relative to: no-protein control
Reading: higher = stronger binding
Shared flanks, not repeated: GGGAGUUCUACAGUCCGACGAUC … UGGAAUUCUCGGGUGCCAA
Construct (chain): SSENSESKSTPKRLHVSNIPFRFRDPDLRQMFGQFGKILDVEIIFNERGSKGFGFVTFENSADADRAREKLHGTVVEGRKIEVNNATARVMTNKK
| Oligonucleotide | RBNS enrichment (R) |
| --- | --- |
| AAUAAAAAUAUAAAAAUAUGUACAUUACAUUUUGCUUAUUUUCAUAUAAAAGGUAAGACAGAGUUUGCAAAGCAUUUGUGGCUUUUUGUAGUUUACUUAAGCCAAAAUGU | 0.493 |
| CAGCUCUAGGGCCUCAGUCUGGAGUGGGAUAGGAGCAGUGAGUGACAAAGCCUCUGAAAGAUGCAUCAUCUCUUCCUCACACCCAUUUAGUGGGGGAUGGGUCCUCUAGA | 0.331 |
| UAAUAUAUUAGAAAUCUACAGAUCUGUUUUGUACUUUUUAUACUGUUGGAUACUUAUAAUCAAAACUUUUACUAGGGUAUUGAAUAAAUCUAGUCUUACUAGAAAAUAAA | 0.584 |
| UGUUCUCCUGUUAAGCCUAGAUCUUUCCCUAGUAGAUUGCAAACUCAACAGUCUGUGUGAUCCCAAAGCCAUUCCACUGUAAAUGCCUGGCAGUAAAGAUGGCCCCAGAC | 1.01 |
| AGAGGCUUGUUUUGUCUUUUGGUUUUUAUGAGGUGGGAUAUCCCUAUGCUGCCUAGGCUGACCUUGAACUCCUGGGCUCAAGCAGUCUACCCACCUCAGCCUCCUGUGUA | 0.293 |
| AGCACAUGUCCAGGAGGGUUGCUGUCGCACUAGCACCUAGGUAACACCAACUAGAUUAUUAUCAGGUACAGAAUCCUGUCCUGAACCUGGGCAAGGCUGGAGGUACUGUA | 0.421 |
| CAGCAGCGCACGCCUCCGAAGCCUGCGGCCUCGCUUGAAGGAGGGCGUCGCCGGAAACCCAGGGAACCUCUCUGAAGUGACACCUCACCCCUACACACCGUCCGUUCACC | 0.696 |
| UUAAGUGCAUUGGACUCCAGGAGAGCCAUUUGGGGUUUCUCUAGCUAAACAAUAAAUGUACCUGUCUCAGUCCGCUGGACUGAGUUGUUUUGAAGGUUCUCAUGGUGCAC | 0.288 |

Set 3
Target: CCNE2, cyclin fold, Cln2 fusion (human)
Method: yeast growth competition, sequencing
Matrix: yeast
Setting: strong parent motif
Relative to: not given
Reading: higher = stronger binding
Starting sequence: BRCA2 docking peptide (human); PSIKRNLLNEFDR; partner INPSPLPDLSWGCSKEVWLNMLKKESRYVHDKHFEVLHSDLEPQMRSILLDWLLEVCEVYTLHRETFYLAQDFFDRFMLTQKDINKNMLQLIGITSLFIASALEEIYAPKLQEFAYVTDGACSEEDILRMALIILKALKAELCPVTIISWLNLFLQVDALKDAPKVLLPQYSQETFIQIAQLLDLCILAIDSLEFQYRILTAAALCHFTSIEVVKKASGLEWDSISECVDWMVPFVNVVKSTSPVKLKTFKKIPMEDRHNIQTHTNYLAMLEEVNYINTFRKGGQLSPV
| Change | normalised enrichment score |
| --- | --- |
| PSIKRNLLNEADR [F11A] | 0.515 |
| PSIKRNLLNCFDR [E10C] | 0.302 |
| PSAKRNLLNEFDR [I3A] | 2.55 |
| PSIKRPLLNEFDR [N6P] | 0.457 |
| PSIKRNLLNEFTR [D12T] | 2.11 |
| PSIKRNLDNEFDR [L8D] | -0.138 |
| PSIKGNLLNEFDR [R5G] | 0.00243 |
| PNIKRNLLNEFDR [S2N] | 1.38 |
| PSIKWNLLNEFDR [R5W] | 0.547 |
| PSIKRNLLNECDR [F11C] | -0.129 |
| PSIKRNLKNEFDR [L8K] | 1.08 |

Single results of other studies
| Molecule | target | assay | test system | conditions | scale | measurement | result |
| --- | --- | --- | --- | --- | --- | --- | --- |
| PhoQ, residues 284 288 289 292 302 303 HSSMNL | PhoP, residues 12 14 15 18 19 YHFSH (Escherichia coli, UniProt P23836) | Sort-seq, item: YFP reporter | E. coli | PhoQ-PhoP variant library, with: 10 µM Mg2+ | relative to: high Mg2+ state, higher = stronger signaling | fold induction | 9.91 |

Excerpt of the above (set 1):
| Oligonucleotide | log2 enrichment |
| --- | --- |
| AGUCCUGUGCUACACAUCGUAUGUACCGAAUCGGUUUUUGGUUUUUGGUUUUUUUGGAAAGUAUUAUGUUACGCCGUUCGGAUCUGCACU | -2.18 |
| CAAGUCCUGUGCUACACAUCGUAUGUACCGAAUCGGGUUUGGGUGGGUUUUUGGGAAAGUAUUAUGUUACGCCGUUCGGAUCUGCACUUC | -0.238 |
| CCCAUUCCAAGAUUUGCUGUUGGCAUUGUAAUAGGAAGAAAUGGAGAGAUGAUCAAAAAAAUACAAAAUGAUGCUGGUGUUCGCAUUCAG | -0.571 |
| UAACUUUAGAGGAGAAUCUGAUGGAUAUGGCAGUGGACGUGGAUUUGGGGAUGGCUAUAAUGGGUAUGGAGGAGGACCUGGAGGUGGCAA | 0.455 |
